Measured values gathered from unrelated publications.
Protocols differ between the studies behind these lines. In brackets after ≈: the same amount, converted by molar mass.
Organism: Pseudomonas aeruginosa

`CC[C@H](C)[C@H](NC(=O)[C@H](CCCCN)NC(=O)[C@H](CCCCN)NC(=O)[C@H](CC(C)C)NC(=O)[C@H](CCCCN)NC(=O)[C@H](CCC(=O)O)NC(=O)[C@H](CCCCN)NC(=O)[C@@H](NC(=O)[C@H](CCCCN)NC(=O)[C@H](CC(N)=O)NC(=O)[C@H](CCCNC(=N)N)NC(=O)[C@H](Cc1ccccc1)NC(=O)[C@H](CCCCN)NC(=O)[C@H](CCCNC(=N)N)NC(=O)[C@H](CC(C)C)NC(=O)[C@H](CCCNC(=N)N)NC(=O)[C@H](CCCCN)NC(=O)[C@H](CCCNC(=N)N)NC(=O)[C@@H](N)CC(C)C)[C@@H](C)CC)C(=O)NCC(=O)N[C@@H](CCC(N)=O)C(=O)N[C@@H](CCCCN)C(=O)N[C@H](C(=O)N[C@@H](CCC(N)=O)C(=O)NCC(=O)N[C@@H](Cc1ccccc1)C(=O)N[C@H](C(=O)N1CCC[C@H]1C(=O)N[C@@H](CCCCN)C(=O)N[C@@H](CC(C)C)C(=O)O)C(C)C)[C@@H](C)CC` has a lethal concentration of 2.67 µM (inhibition zone method; 14, LB 0.8% agar with 154 mM NaCl; overnight, 37 °C).
With `CC[C@@H](C)[C@@H](NC(=O)[C@@H](C)NC(=O)[C@@H](CCCCN)NC(=O)[C@@H](CC(C)C)NC(=O)[C@@H](C)NC(=O)[C@H](NC(=O)[C@@H](Cc1c[nH]cn1)NC(=O)[C@@H](CC(C)C)NC(=O)[C@H](NC(=O)[C@H](NC(=O)[C@@H](CCCCN)NC(=O)[C@@H](CCCCN)NC(=O)[C@@H](C)NC(=O)[C@@H](CO)NC(=O)[C@@H](CCCCN)NC(=O)[C@@H](Cc1ccccc1)NC(=O)[C@H](NC(=O)[C@@H](CCCCN)NC(=O)[C@@H](CC(C)C)NC(=O)[C@@H](Cc1ccccc1)NC(=O)[C@@H](CO)NC(=O)[C@@H](CCCCN)NC(=O)[C@@H](Cc1c[nH]c2ccccc12)NC(=O)[C@@H](CCCCN)NC(C)=O)[C@H](C)O)[C@H](C)O)C(C)C)[C@H](C)O)C(=O)N[C@H](CO)C(=O)N[C@H](CO)C(N)=O` the therapeutic index was 34.4 (six isolates; relative to: HC50 over geometric mean MIC).
For `CN1CC(=O)N=C1N.C[C@H](CCC(=O)O)[C@H]1CC[C@H]2[C@@H]3[C@@H](O)C[C@@H]4C[C@H](O)CC[C@]4(C)[C@H]3CC[C@]12C`, antibacterial activity read “inactive” (TISTR357; 1 mg per disc, 18 to 24 h, 37 °C).
With `CC[C@H](C)[C@H](NC(=O)[C@H](CCCNC(=N)N)NC(=O)[C@H](CCCCN)NC(=O)[C@H](CC(C)C)NC(=O)[C@H](CC(C)C)NC(=O)CN)C(=O)N[C@@H](CCCCN)C(=O)N[C@H](C(=O)N[C@@H](CC(C)C)C(=O)N[C@@H](CC(C)C)C(=O)NCCCC[C@H](NC(=O)[C@H](CC(C)C)NC(=O)[C@H](CC(C)C)NC(=O)[C@@H](NC(=O)[C@H](CCCCN)NC(=O)[C@@H](NC(=O)[C@H](CCCNC(=N)N)NC(=O)[C@H](CCCCN)NC(=O)[C@H](CC(C)C)NC(=O)[C@H](CC(C)C)NC(=O)CN)[C@@H](C)CC)[C@@H](C)O)C(N)=O)[C@@H](C)O` the FIC index was 0.375 (checkerboard; ATCC 27853; with: rifampicin).
`CC[C@H](C)[C@H](NC(=O)[C@H](CCCCN)NC(=O)[C@H](CCCCN)NC(=O)[C@H](CC(C)C)NC(=O)[C@H](CCCCN)NC(=O)[C@H](CCC(=O)O)NC(=O)[C@H](CCCCN)NC(=O)[C@@H](NC(=O)[C@H](CCCCN)NC(=O)[C@H](CC(N)=O)NC(=O)[C@H](CCCNC(=N)N)NC(=O)[C@H](Cc1ccccc1)NC(=O)[C@H](CCCCN)NC(=O)[C@H](CCCNC(=N)N)NC(=O)[C@H](CC(C)C)NC(=O)[C@H](CCCNC(=N)N)NC(=O)[C@H](CCCCN)NC(=O)[C@H](CCCNC(=N)N)NC(=O)[C@H](CC(C)C)NC(=O)[C@@H](N)CCCNC(=N)N)[C@@H](C)CC)C(=O)NCC(=O)N[C@@H](CCC(N)=O)C(=O)N[C@@H](CCCCN)C(=O)N[C@H](C(=O)N[C@@H](CCC(N)=O)C(=O)NCC(=O)N[C@@H](Cc1ccccc1)C(=O)N[C@H](C(=O)N1CCC[C@H]1C(=O)N[C@@H](CCCCN)C(=O)N[C@@H](CC(C)C)C(=O)N[C@@H](CCC(N)=O)C(=O)N1CCC[C@H]1C(=O)N[C@@H](CO)C(=O)N[C@@H](CCCCN)C(=O)N[C@@H](CCC(N)=O)C(=O)N[C@@H](CO)C(=O)O)C(C)C)[C@@H](C)CC` has a lethal concentration of 3.89 µM (inhibition zone method; 374, LB 0.8% agar with 154 mM NaCl; overnight, 37 °C).
For `CC[C@H](C)[C@H](NC(=O)[C@H](Cc1c[nH]cn1)NC(=O)[C@H](CCCCNC(=O)[C@@H](NC(=O)[C@H](CCCCN)NC(=O)CSC[C@H](NC(=O)[C@H](Cc1ccccc1)NC(=O)[C@H](CCCCNC(=O)[C@H](CC(C)C)NC(=O)[C@@H]1CCCN1C(=O)[C@H](CCCCN)NC(=O)CCS[C@@H]1O[C@H](CO)[C@H](O)[C@H](O)[C@H]1O)NC(=O)[C@H](CC(C)C)NC(=O)[C@@H]1CCCN1C(=O)[C@H](CCCCN)NC(=O)C[C@@H]1O[C@@H](C)[C@@H](O)[C@@H](O)[C@@H]1O)C(N)=O)[C@@H](C)CC)NC(=O)[C@@H](NC(=O)[C@H](CCCCN)NC(=O)CSC[C@H](NC(=O)[C@H](Cc1ccccc1)NC(=O)[C@H](CCCCNC(=O)[C@H](CC(C)C)NC(=O)[C@@H]1CCCN1C(=O)[C@H](CCCCN)NC(=O)CCS[C@@H]1O[C@H](CO)[C@H](O)[C@H](O)[C@H]1O)NC(=O)[C@H](CC(C)C)NC(=O)[C@@H]1CCCN1C(=O)[C@H](CCCCN)NC(=O)C[C@@H]1O[C@@H](C)[C@@H](O)[C@@H](O)[C@@H]1O)C(N)=O)[C@@H](C)CC)C(N)=O`, the MBIC was > 45 µM (biofilm formation; PAO1; 24 h).
`CC[C@H](C)[C@H](NC(=O)[C@H](CCCCN)NC(=O)[C@H](CCCCN)NC(=O)[C@H](CC(C)C)NC(=O)[C@H](CCCCN)NC(=O)[C@H](CCC(=O)O)NC(=O)[C@H](CCCCN)NC(=O)[C@@H](NC(=O)[C@H](CCCCN)NC(=O)[C@H](CC(N)=O)NC(=O)[C@H](CCCNC(=N)N)NC(=O)[C@H](Cc1ccccc1)NC(=O)[C@H](CCCCN)NC(=O)[C@H](CCCNC(=N)N)NC(=O)[C@H](CC(C)C)NC(=O)[C@H](CCCNC(=N)N)NC(=O)[C@H](CCCCN)NC(=O)[C@H](CCCNC(=N)N)NC(=O)[C@H](CC(C)C)NC(=O)[C@@H](N)CC(C)C)[C@@H](C)CC)C(=O)NCC(=O)N[C@@H](CCC(N)=O)C(=O)N[C@@H](CCCCN)C(=O)N[C@H](C(=O)N[C@@H](CCC(N)=O)C(=O)NCC(=O)N[C@@H](Cc1ccccc1)C(=O)N[C@H](C(=O)N1CCC[C@H]1C(=O)N[C@@H](CCCCN)C(=O)N[C@@H](CC(C)C)C(=O)N[C@H](C(=O)N1CCC[C@H]1C(=O)N[C@@H](CCCNC(=N)N)C(=O)N[C@H](C(=O)N[C@@H](CCC(=O)O)C(=O)N[C@@H](CO)C(=O)O)[C@@H](C)O)C(C)C)C(C)C)[C@@H](C)CC` gave a lethal concentration of 1.47 µM (inhibition zone method; 11082616, LB 0.8% agar with 154 mM NaCl; overnight, 37 °C).
Under “minimal biofilm inhibitory concentration”, `CC(C)C[C@H](NC(=O)[C@@H]1CSCC(=O)N[C@@H](CCCCN)C(=O)N[C@@H](CC(C)C)C(=O)N[C@@H](CCCCN)C(=O)N[C@H]2CCCCNC(=O)[C@H](CCCCN)NC(=O)[C@H](CC(C)C)NC(=O)[C@H](CCCCN)NC(=O)CSC[C@H](NC(=O)[C@H](CC(C)C)NC(=O)[C@H](CC(C)C)NC(=O)[C@H](CCCCN)NC2=O)C(=O)N[C@@H](CCCCN)C(=O)N[C@@H](CC(C)C)C(=O)N[C@@H](CCCCN)C(=O)N1)C(N)=O` is recorded as 16 µg/mL (PAO1; 24 to 25 h).
The MBIC of `CC[C@H](C)[C@H](NC(=O)[C@H](Cc1c[nH]cn1)NC(=O)[C@H](CCCCNC(=O)[C@@H](NC(=O)[C@H](CCCCN)NC(=O)[C@H](Cc1ccccc1)NC(=O)[C@H](CCCCNC(=O)[C@H](CC(C)C)NC(=O)[C@@H]1CCCN1C(=O)[C@H](CCCCN)NC(=O)C[C@@H]1O[C@@H](C)[C@@H](O)[C@@H](O)[C@@H]1O)NC(=O)[C@H](CC(C)C)NC(=O)[C@@H]1CCCN1C(=O)[C@H](CCCCN)NC(=O)C[C@@H]1O[C@@H](C)[C@@H](O)[C@@H](O)[C@@H]1O)[C@@H](C)CC)NC(=O)[C@@H](NC(=O)[C@H](CCCCN)NC(=O)[C@H](Cc1ccccc1)NC(=O)[C@H](CCCCNC(=O)[C@H](CC(C)C)NC(=O)[C@@H]1CCCN1C(=O)[C@H](CCCCN)NC(=O)C[C@@H]1O[C@@H](C)[C@@H](O)[C@@H](O)[C@@H]1O)NC(=O)[C@H](CC(C)C)NC(=O)[C@@H]1CCCN1C(=O)[C@H](CCCCN)NC(=O)C[C@@H]1O[C@@H](C)[C@@H](O)[C@@H](O)[C@@H]1O)[C@@H](C)CC)C(N)=O` is reported as 20 µM (biofilm formation; PAO1; 24 h).
`CC[C@H](C)[C@H](NC(=O)[C@H](CCCCN)NC(=O)[C@H](CCCCN)NC(=O)[C@H](CC(C)C)NC(=O)[C@H](CCCCN)NC(=O)[C@H](CCC(=O)O)NC(=O)[C@H](CCCCN)NC(=O)[C@@H](NC(=O)[C@H](CCCCN)NC(=O)[C@H](CC(N)=O)NC(=O)[C@H](CCCNC(=N)N)NC(=O)[C@H](Cc1ccccc1)NC(=O)[C@H](CCCCN)NC(=O)[C@H](CCCNC(=N)N)NC(=O)[C@H](CC(C)C)NC(=O)[C@H](CCCNC(=N)N)NC(=O)[C@H](CCCCN)NC(=O)[C@H](CCCNC(=N)N)NC(=O)[C@H](CC(C)C)NC(=O)CN)[C@@H](C)CC)C(=O)NCC(=O)N[C@@H](CCC(N)=O)C(=O)N[C@@H](CCCCN)C(=O)N[C@H](C(=O)N[C@@H](CCC(N)=O)C(=O)NCC(=O)N[C@@H](Cc1ccccc1)C(=O)N[C@H](C(=O)N1CCC[C@H]1C(=O)N[C@@H](CCCCN)C(=O)N[C@@H](CC(C)C)C(=O)N[C@@H](C)C(=O)N1CCC[C@H]1C(=O)N[C@@H](CCCNC(=N)N)C(=O)N[C@H](C(=O)N[C@@H](CC(=O)O)C(=O)N[C@@H](Cc1ccc(O)cc1)C(=O)O)[C@@H](C)O)C(C)C)[C@@H](C)CC` has a lethal concentration of 1.4 µM (inhibition zone; O1; LB agar, overnight).
`C[C@@](O)(C(F)F)[C@H](NC(=O)c1ccc(C#CC#CC2CC2)cc1)C(=O)NO` has an MIC90 of 0.5 µg/mL (≈ 1.33 µM) (agar dilution; susceptible clinical isolates).
Under “minimal biofilm inhibitory concentration”, `CC(C)C[C@@H]1NC(=O)[C@H](CC(C)C)NC(=O)[C@H](CCCCN)NC(=O)CSC[C@@H](C(=O)N[C@@H](CCCCN)C(N)=O)NC(=O)[C@H](CCCCN)NC(=O)[C@H](CC(C)C)NC(=O)[C@H](CCCCN)NC(=O)[C@@H]2CSCC(=O)N[C@@H](CCCCN)C(=O)N[C@@H](CC(C)C)C(=O)N[C@@H](CC(C)C)C(=O)N[C@@H](CCCCNC1=O)C(=O)N[C@@H](CCCCN)C(=O)N[C@@H](CC(C)C)C(=O)N[C@@H](CC(C)C)C(=O)N2` is recorded as 32 µg/mL (PAO1; 24 to 25 h).
For `ONCC1CCCCC1`, the biofilm reduction was > 50% (CLSM COMSTAT, measured: biomass and average thickness; continuous-flow biofilm; concentration not given).

Excerpt of the above:
With `CC[C@H](C)[C@H](NC(=O)[C@H](CCCNC(=N)N)NC(=O)[C@H](CCCCN)NC(=O)[C@H](CC(C)C)NC(=O)[C@H](CC(C)C)NC(=O)CN)C(=O)N[C@@H](CCCCN)C(=O)N[C@H](C(=O)N[C@@H](CC(C)C)C(=O)N[C@@H](CC(C)C)C(=O)NCCCC[C@H](NC(=O)[C@H](CC(C)C)NC(=O)[C@H](CC(C)C)NC(=O)[C@@H](NC(=O)[C@H](CCCCN)NC(=O)[C@@H](NC(=O)[C@H](CCCNC(=N)N)NC(=O)[C@H](CCCCN)NC(=O)[C@H](CC(C)C)NC(=O)[C@H](CC(C)C)NC(=O)CN)[C@@H](C)CC)[C@@H](C)O)C(N)=O)[C@@H](C)O` the FIC index was 0.375 (checkerboard; ATCC 27853; with: rifampicin).
